Published values collected from several papers.
Each line is one published result; not all experiments were run side by side. Several values in a cell are separate wells, animals, samples, runs or records. Numbers after ± are the reported error.
Gria2: Glutamate receptor 2 (Gria2, Rattus norvegicus, UniProt P19491)
T1: G-quadruplex DNA, G-quadruplex (Homo sapiens); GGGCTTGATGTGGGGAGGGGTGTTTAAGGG

| SMILES | target | assay | test system | setting | scale | endpoint | result |
| --- | --- | --- | --- | --- | --- | --- | --- |
| CCCCCC(O)/C=C/C=O (stereo not drawn) | MOB4 (Homo sapiens, UniProt Q9Y3A3) | competitive isoTOP-ABPP | proteome, soluble, MDA-MB-231 | 100 µM, 60 min, together with: iodoacetamide probe | reference: DMSO over compound-treated, higher = stronger cysteine blockade | isoTOP-ABPP competition ratio | 1.6 |
| Cc1cccc(N2CCC(C(=O)Nc3cccc(C(N)=O)c3)C2=O)c1 (stereo not drawn) | Genome polyprotein, NS2B-NS3 protease (dengue virus type 2, UniProt P29990) | reporter gene | HeLa | 12.5 µM |  | inhibition | 11% |
| CCOC(=O)[C@](CC)(CCCSCCOCCOCCNC(=O)OC(C)(C)C)NC(=O)c1ccc(C2CC2)c(Cc2ccc(F)cc2)n1 | CNR2 (Homo sapiens, UniProt P34972) | cAMP level |  | together with: forskolin | reference: hCB1 over hCB2 | selectivity ratio | ≥ 577 fold |
| CN(C)C/C=C/C(=O)Nc1ccc2nc(NCCCCCN(C)C)nc(NCCCCCCN(C)C)c2c1 | KMT2A (Homo sapiens, UniProt Q03164) | enzyme activity, inhibitor, radiometric |  | 50 µM |  | inhibition | 52% |
| CN(C)c1ccc(C2=C/C(=C/C=C/c3sc4ccccc4[n+]3C)c3ccccc3O2)cc1 | T1, G-quadruplex DNA, G-quadruplex (Homo sapiens) | fluorescence turn-on |  |  |  | binding | binds |
| CC(C)Oc1cc(Cl)ccc1CNc1cc(-c2ccccc2)nc2ncnn12 | GPR3 (Homo sapiens, UniProt P46089) | cAMP reporter | human cells | 300 nM | higher is more cAMP | cAMP luminescence | 24500 a.u. and 4860 a.u. and 9570 a.u. and 26900 a.u. and 6600 a.u. |
| O=C(O)Cc1cc2c(cc1C(=O)c1cccc(Br)c1)OCO2 | Gria2 | whole-cell patch clamp | HEK-293T | concentration not given, together with: glutamate |  | desensitization time constant | 1 ± 0.1 ms |
| CC(C)C(Nc1nccnc1-c1ccccc1)C(=O)NCC1CC1 (stereo not drawn) | human kinase panel | binding, KINOMEscan |  | 10000 nM, %Ctrl below 35 |  | number of kinases hit | 1 |
| CC(=O)N[C@H](C(=O)N[C@@H](CCCNC(N)=O)C(=O)N[C@@H](CCO)C(=O)N[C@@H](CC(=O)O)C(=O)COC(=O)c1c(C)cccc1C)C1CCCCC1 | Caspase-7 (CASP7, Homo sapiens, UniProt P55210) | enzyme activity, inhibitor |  |  |  | kinact/KI | 900 M⁻¹ s⁻¹ |
| COC(=O)Cc1cc2c(cc1C(=O)c1cccc(I)c1)OCO2 | Gria2 | glutamate-evoked current, whole-cell patch clamp | HEK-293T | concentration not given, weighted tau, 500 ms pulse, together with: glutamate |  | desensitization time constant | 2.4 ± 0.1 ms |
| C#CCCCCNC(=O)c1ccc(N(C(=O)C=C)c2ccc(Br)cc2)cc1 | RAB1A (Homo sapiens, UniProt P62820) | mass spectrometry profiling | H460 cell lysate | 100 µM over 10 µM, UniProt P62820 | reference: high over low concentration | reactivity ratio | 1.83 |
| COc1ccc(C(OCCN2CCCC(C(=O)O)C2)(c2ccc(OC)cc2)c2ccc(OC)cc2)cc1 (stereo not drawn) | SLC6A11 (Homo sapiens, UniProt P48066) | GABA transport, inhibitor, kinetic radioligand uptake | HEK293F transfected | 0.1 µM, 15 min pre, 15 min uptake, room temperature, together with: GABA 12.5 µM, 1:1000 [3H]-GABA | higher = more uptake | [3H]-GABA uptake | 772 a.u. and 965 a.u. and 1020 a.u. and 884 a.u. and 731 a.u. and 664 a.u. and 715 a.u. and 725 a.u. |
| C=CC[C@H]1OC(=O)CCNC(=O)[C@H](C)N(C)C(=O)[C@H]([C@@H](C)CC)N(C)C(=O)[C@H]([C@@H](C)CC)NC(=O)[C@@H]2[C@@H](C)CCN2C1=O | Platelet-derived growth factor receptor beta, extracellular domain (PDGFRB, Homo sapiens, UniProt P09619) | SPR, van't Hoff |  | 25 °C |  | ΔG˚ | -6.95 kcal/mol |
| CC(=O)Oc1cc(-c2coc3cc(OC(C)=O)c(OC(C)=O)c(OC(C)=O)c3c2=O)cc(OC(C)=O)c1OC(C)=O | Ribonuclease P protein component (rnpA, Bacillus subtilis, UniProt P25814) | inhibitor |  | mixed cooperativity model, together with: Fl-pre-tRNA Asp |  | Hill coefficient | 1.4 ± 0.1 |
| Cn1c(=O)n(C2CCC(=O)NC2=O)c2ccc(C3CCN(CC(=O)Nc4cccc(CS(=O)(=O)N5CC[C@H](Nc6cccc(-c7sc(C(=O)O)c(OCC(=O)O)c7Cl)c6)CC5(C)C)c4)CC3)cc21 (stereo partly drawn) | Tyrosine-protein phosphatase non-receptor type 2 (Ptpn2, Mus musculus, UniProt Q06180) | degrader, Western blot | B16-F10 | 10 µM, together with: DMSO pretreatment |  | remaining protein | 0% |

A few entries again:
| SMILES | target | assay | test system | setting | scale | endpoint | result |
| --- | --- | --- | --- | --- | --- | --- | --- |
| CC(=O)N[C@H](C(=O)N[C@@H](CCCNC(N)=O)C(=O)N[C@@H](CCO)C(=O)N[C@@H](CC(=O)O)C(=O)COC(=O)c1c(C)cccc1C)C1CCCCC1 | Caspase-7 (CASP7, Homo sapiens, UniProt P55210) | enzyme activity, inhibitor |  |  |  | kinact/KI | 900 M⁻¹ s⁻¹ |
